Assay results collected from several papers.
Protocols differ between the studies behind these lines. Numbers after ± are the reported error.
UniProt Q9UNQ0, sequence (whole entry, looked up): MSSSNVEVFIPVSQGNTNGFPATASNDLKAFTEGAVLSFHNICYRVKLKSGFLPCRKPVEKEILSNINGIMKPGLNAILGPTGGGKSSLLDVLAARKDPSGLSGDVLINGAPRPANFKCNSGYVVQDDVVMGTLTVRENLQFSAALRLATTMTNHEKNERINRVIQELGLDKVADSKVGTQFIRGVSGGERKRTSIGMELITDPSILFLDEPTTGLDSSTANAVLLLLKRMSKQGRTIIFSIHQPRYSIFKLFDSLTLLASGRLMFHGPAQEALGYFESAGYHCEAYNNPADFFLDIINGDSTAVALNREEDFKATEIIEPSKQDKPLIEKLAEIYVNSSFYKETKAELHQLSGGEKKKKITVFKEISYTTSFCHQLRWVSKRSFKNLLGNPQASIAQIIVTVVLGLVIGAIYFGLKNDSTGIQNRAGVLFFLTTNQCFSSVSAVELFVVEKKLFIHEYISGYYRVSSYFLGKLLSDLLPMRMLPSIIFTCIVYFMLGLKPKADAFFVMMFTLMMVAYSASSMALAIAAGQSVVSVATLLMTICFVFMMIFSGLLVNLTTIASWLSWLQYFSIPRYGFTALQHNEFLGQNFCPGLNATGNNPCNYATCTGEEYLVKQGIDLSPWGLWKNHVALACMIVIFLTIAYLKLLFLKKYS

| SMILES | target or system | assay | test system | conditions | how to read | measurement | value |
| --- | --- | --- | --- | --- | --- | --- | --- |
| Fc1ccc2c(c1)c1nc3ccc(Br)cc3c-1cn2Cc1cn(Cc2cccc(Cl)c2)nn1 | Giardia duodenalis |  |  |  | baseline: Caco-2 CC50 over Giardia IC50 | selectivity index | 3.1 |
| CC(C)(O)c1ncc([S@](N)(=O)=NC(=O)Nc2c3c(cc4c2CCC4)CCC3)s1 |  |  | healthy human subjects | oral, dose not given, higher doses |  | subjects with maculopapular or pruritic rash | 10% |
| c1ccc(CN2CCOCCOCCN(CCCCCCCCCCCCCCN3CCOCCOCCN(CCCCCCCCCCCCCCN4CCOCCOCCN(Cc5ccccc5)CCOCCOCC4)CCOCCOCC3)CCOCCOCC2)cc1 | Escherichia coli | propidium iodide uptake | tetracycline-resistant |  |  | concentration for membrane permeabilisation | ≥ 4 µM |
| CC(C)[C@H](NC(=O)CNC(=O)[C@H](CCC(N)=O)NC(=O)[C@H](C)N)C(=O)O |  | LC-MS/MS | human, male, plasma | intravenous, 30 mg/kg three times daily, day 3, first dose, 10 min infusion, geometric mean |  | volume of distribution | 21 L/kg |
| O=C(O)CCC(NP(=O)(O)OCCC[C@@H](NC(=O)CC[C@H](NC(=O)CCCCCNC(=O)c1ccc([18F])cc1)C(=O)O)C(=O)O)C(=O)O (stereo partly shown) | CWR22Rv1 tumour model |  | host not given, spleen | 1 h, tumour-bearing |  | tracer uptake | 0.819 %ID/g |
| N=C(N)NCCC[C@@H]1NC(=O)[C@H](Cc2c[nH]c3ccccc23)NC(=O)[C@@H](CC2CCCCC2)NC(=O)[C@@H]2CCCN2C(=O)[C@@H](NC(=O)CCc2ccccc2)CCCNC1=O |  |  | C57BL/6J mice, spinal cord | intravenous, 1 mg/kg |  | elimination half-life | 28.4 min |
| Cn1c(=O)oc2ccc(-c3ccc(CC(C#N)NC(=O)C4CNCCCO4)c(F)c3)cc21 (stereo not shown) |  |  | human | oral, 20 mg once daily, treatment-related AE, multiple ascending dose |  | ALT increased incidence | 0% |
| CC(C)CC(NC(=O)C1OC(OC2C(OC3CCC4(C)C(CCC5(C)C4C(=O)C=C4C6CC(C)(C(=O)NC(CC(C)C)C(=O)O)CCC6(C)CCC45C)C3(C)C)OC(C(=O)NC(CC(C)C)C(=O)O)C(O)C2O)C(O)C(O)C1O)C(=O)O (stereo not shown) | Epstein-Barr virus |  | superinfected Raji cells |  | baseline: CC50 over EC50 | therapeutic index | 200 |
| NC12CNCCNCC(NCc3ccc(CNC(=O)CCCC(=O)NCc4ccc(-c5nncnn5)cc4)cc3)(CNCCNC1)CNCCNC2.[64Cu+2] |  | OLINDA dosimetry | osteogenic cells | pretargeting, 120-h interval |  | mean absorbed dose | 0.0719 rad/mCi |
| NS(=O)(=O)c1ccc(NC(=O)NN[C@@H]2O[C@H](CO)[C@@H](O)[C@H](O)[C@H]2O)cc1 | rabbit erythrocytes |  |  | 16 µg/mL, 3 h | baseline: complete lysis | hemolysis | 0% |
| [64Cu+2].c1cnc(CNCc2ccc(CN3CCCN4CCNCCCN(CC4)CC3)cc2)nc1 | CXCR4 |  | NOD/SCID mouse, U87 xenografts, U87-stb-CXCR4 tumour | 90 min, together with: AMD3465 25 mg/kg sc |  | tissue uptake | 3.82 ± 1.99 %ID/g |
| O=C(O)C1OC(Oc2ccc3oc(-c4ccccc4)cc(=O)c3c2)C(O)C(O)C1O (stereo not shown) | ABCG2 (Homo sapiens, UniProt Q9UNQ0) | substrate, glucuronide efflux | HeLa-UGT1A9 cells |  |  | log CLint | 0.75 |
| Fc1ccc2c(c1)c1nc3ccc(Br)cc3c-1cn2Cc1cn(-c2ccccc2)nn1 | Giardia duodenalis |  |  |  | baseline: Caco-2 CC50 over Giardia IC50 | selectivity index | 2.5 |
| COC(=O)COc1ccc(NC(=O)C2(c3ccc(Cl)c(Cl)c3)CC2)c(C)c1 | U-937 | LDH release |  | 12.5 µM, 4 h | baseline: Triton X-100 | cytotoxicity | -1% |
| Fc1ccc2c(c1)c1nc3ccc(Br)cc3c-1cn2Cc1cn(Cc2ccccc2)nn1 | Giardia duodenalis |  |  |  | baseline: Caco-2 CC50 over Giardia IC50 | selectivity index | 11.7 |
| [11CH3]c1ccc2nc(C3CCC3)n(-c3ccc4[nH]ncc4c3)c2n1 |  |  | human female, thyroid |  |  | absorbed radiation dose | 2.5 µSv/MBq |
| CC(=O)N[C@H](C(=O)N[C@H](C(=O)N[C@@H](CCCNC(=N)N)C(=O)N1Cc2ccccc2C[C@H]1C(=O)N[C@@H](Cc1ccccc1)C(N)=O)C1CCCCC1)C(C)C | human PBMC | Bio-Plex multiplex, item: IL-5 |  | 500 µg/mL, 24 h |  | cytokine level | < 0.2 pg/mL |
| [64Cu+2].c1ccc(CNCc2ccc(CN3CCCN4CCNCCCN(CC4)CC3)cc2)nc1 | CXCR4 |  | NOD/SCID mouse, U87 and U87-stb-CXCR4 xenografts | iv, 90 min, no blocking dose | baseline: U87 tumour over blood | tumour-to-tissue ratio | 2.81 ± 1.05 |
| COc1ccc(-n2cc(Cn3cc4c5cc(Br)ccc5nc-4c4cc(F)ccc43)nn2)cc1 | Giardia duodenalis |  |  |  | baseline: Caco-2 CC50 over Giardia IC50 | selectivity index | 11 |

Repeated from above:
| SMILES | target or system | assay | test system | conditions | how to read | measurement | value |
| --- | --- | --- | --- | --- | --- | --- | --- |
| CC(C)[C@H](NC(=O)CNC(=O)[C@H](CCC(N)=O)NC(=O)[C@H](C)N)C(=O)O |  | LC-MS/MS | human, male, plasma | intravenous, 30 mg/kg three times daily, day 3, first dose, 10 min infusion, geometric mean |  | volume of distribution | 21 L/kg |
